# Values quoted from earlier work as cited in several papers.
# Each line is one published result; not all experiments were run side by side. “And” joins repeats or separate records; there may be more than shown. ± gives the spread as reported.
SMILES,target or system,test,test system,conditions,endpoint,value
N#Cc1ccccc1C[C@@H](N)C(=O)N[C@H](Cc1ccc(Cl)cc1Cl)C(=O)N[C@H](CC(=O)O)Cc1ccc(F)cc1,SARS-CoV-2 3CL protease,"enzyme activity, inhibitor",,,IC50,5700 nM
CSCC[C@@H]1NC(=O)CNC(=O)[C@H](CCC(=O)O)NC(=O)[C@@H]2CSSC[C@H](NC(=O)[C@@H](N)Cc3ccc(O)cc3)C(=O)N[C@@H](CCC(N)=O)C(=O)N[C@@H](CCCCN)C(=O)N[C@@H](Cc3c[nH]c4ccccc34)C(=O)N[C@@H](CCSC)C(=O)N[C@@H](Cc3c[nH]c4ccccc34)C(=O)N[C@@H]([C@@H](C)O)C(=O)N[C@H]3CSSC[C@H](NC(=O)[C@H](C(C)C)NC1=O)C(=O)N[C@@H](CCCNC(=N)N)C(=O)N[C@@H](CC(C)C)C(=O)N[C@@H](Cc1c[nH]c4ccccc14)C(=O)N[C@H](C(=O)N[C@@H](CCCCN)C(=O)N[C@@H](CCCCN)C(=O)N[C@@H](CCCCN)C(=O)N[C@@H](CC(C)C)C(=O)N[C@@H](Cc1c[nH]c4ccccc14)C(=O)O)CSSC[C@H](NC(=O)[C@H](CCCCN)NC(=O)[C@H](CCCNC(=N)N)NC(=O)[C@H](CCC(=O)O)NC(=O)[C@H](CO)NC(=O)[C@H](CC(=O)O)NC3=O)C(=O)N2,Nav1.6,"sodium current, inhibitor",,,IC50,26 nM
O=C(CNc1nc(N2CCc3ccccc3C2)nc2ccccc12)Nc1ccccc1,SARS-CoV-2 RdRp,,,10 µM,inhibition,58.8%
O=c1cc(-c2ccc(Cl)cc2)nc(SCc2ccc([N+](=O)[O-])cc2)[nH]1,SARS-CoV main protease,"enzyme activity, inhibitor",,,IC50,6100 nM
CC[C@H](C)[C@@H]1NC(=O)[C@H](CC(=O)O)NC(=O)[C@H]([C@@H](C)O)NC(=O)[C@@H]2CSSC[C@@H]3NC(=O)[C@H](CC(C)C)NC(=O)[C@H](CC(N)=O)NC(=O)[C@H](CC(C)C)NC(=O)[C@H](CCCNC(=N)N)NC(=O)[C@H](Cc4ccc(O)cc4)NC(=O)[C@H](CCCCN)NC(=O)[C@H](CCSC)NC(=O)[C@H](CO)NC(=O)[C@H]([C@@H](C)O)NC(=O)[C@H](CCCNC(=N)N)NC(=O)[C@H](CSSC[C@H](NC(=O)[C@H]([C@@H](C)O)NC(=O)[C@H](CCCCN)NC(=O)[C@H](CCCNC(=N)N)NC3=O)C(=O)NCC(=O)N[C@@H](CO)C(=O)N[C@H](C(=O)O)CSSC[C@H](NC(=O)[C@@H](NC(=O)[C@@H](N)CCCNC(=N)N)[C@@H](C)O)C(=O)N[C@@H](CCCCN)C(=O)N[C@@H](CC(=O)O)C(=O)N[C@@H](CC(C)C)C(=O)N[C@@H]([C@@H](C)CC)C(=O)N3CCC[C@H]3C(=O)N[C@@H](C(C)C)C(=O)N[C@@H](CO)C(=O)N[C@@H](CCC(=O)O)C(=O)N2)NC(=O)[C@H](CCCNC(=N)N)NC1=O,KcsA-Shaker channel,inhibitor,,,Ki,~1 nM
O=C(NCc1ccc(F)cc1F)c1cn2ccn(CCCCCO)c(=O)c2c(O)c1=O,HIV-1 integrase S230N,viral replication,HIV-1,single-round vector,EC50,15.4 ± 0.3 nM
Nc1ncnc2c1ncn2C1OC(CSCCC(N)C(=O)O)C(O)C1O (centres unmarked),SARS-CoV-2 nsp16,"enzyme activity, inhibitor",,other laboratory data,IC50,2200 nM
O=C1c2ccccc2C(=O)c2oc(-c3ccccc3)nc21,SARS-CoV-2 papain-like protease,"enzyme activity, inhibitor",,together with: Ub-AMC substrate,IC50,91 nM
O=C(Oc1cncc(Cl)c1)c1cccc2[nH]ccc12,SARS-CoV 3C-like protease,enzyme activity,,,IC50,30 nM
O=C1C(=O)N(Cc2cc3ccccc3s2)c2ccc(I)cc21,SARS-CoV main protease,,,,IC50,950 nM
O=C(NCc1ccc(F)cc1F)c1cn2c(c(O)c1=O)C(=O)N(CCCCCCO)CC2,HIV-1 integrase S230N,viral replication,HIV-1,single-round vector,EC50,> 30 nM and 38 nM
CC1OC(OC2C(CO)OC(OC3CCC4(C)C(CCC5(C)C4CC=C4C6CC(C)(C)CCC6(C(=O)Nc6ccccc6)CCC45C)C3(C)C)C(OC3OC(C)C(O)C(O)C3O)C2O)C(O)C(O)C1O (centres unmarked),SARS-CoV-2 spike protein,,,,IC50,18100 nM
O=C(/C=C/c1ccc(O)c2oc(-c3ccc(O)c(O)c3)cc12)O[C@H](Cc1ccc(O)c(O)c1)C(=O)O,SARS-CoV-2 spike protein,,ACE2-expressing HEK293T,,IC50,3850 nM
CC1=NOC(=O)/C1=C\c1ccc(-c2ccccc2)o1,IspE (Yersinia pestis),"enzyme activity, inhibitor",,,IC50,6000 nM
NCC(CCC(N)C(=O)O)CC1OC(n2cnc3c(N)ncnc32)C(O)C1O (centres unmarked),SARS-CoV-2 nsp16 methyltransferase,"enzyme activity, inhibitor",,,IC50,3400 nM
C=CCn1c(CSc2ccccc2[N+](=O)[O-])n[nH]c1=S,SARS-CoV nsp13 helicase,,,,IC50,5300 nM
O=C(Oc1cccnc1)c1ccco1,"Replicase polyprotein 1ab, main protease (rep, Severe acute respiratory syndrome-related coronavirus, UniProt P0C6X7)",,,100 µM,inhibition,91%
Nc1c(C(=O)NCc2ccc(F)cc2F)c(=O)n(O)c2ncccc12,HIV-1,viral replication,integrase G118R mutant,,EC50,16 ± 5 nM
CC(C)C[C@H](NC(=O)CN)C(=O)N[C@@H](Cc1ccccc1)C(=O)N[C@@H](CC(=O)O)C(=O)O,ricin A chain,,,yeast,IC50,102000 nM
Cc1cc(C#N)cc(C)c1Oc1nc(NC2CCN(Cc3ccc(S(N)(=O)=O)cc3)CC2)nc2ccsc12,HIV-1,"viral cytopathic effect, MTT","MT-4, E138K mutant",,EC50,2.9 nM

# Some of these lines once more:
SMILES,target or system,test,test system,conditions,endpoint,value
NCC(CCC(N)C(=O)O)CC1OC(n2cnc3c(N)ncnc32)C(O)C1O (centres unmarked),SARS-CoV-2 nsp16 methyltransferase,"enzyme activity, inhibitor",,,IC50,3400 nM
C=CCn1c(CSc2ccccc2[N+](=O)[O-])n[nH]c1=S,SARS-CoV nsp13 helicase,,,,IC50,5300 nM
